Published values of several laboratories.
Compare with care: the assays were run in different laboratories.
Target: Focal adhesion kinase 1 (PTK2, Homo sapiens, UniProt Q05397)
Chain of UniProt Q05397 (whole entry, looked up): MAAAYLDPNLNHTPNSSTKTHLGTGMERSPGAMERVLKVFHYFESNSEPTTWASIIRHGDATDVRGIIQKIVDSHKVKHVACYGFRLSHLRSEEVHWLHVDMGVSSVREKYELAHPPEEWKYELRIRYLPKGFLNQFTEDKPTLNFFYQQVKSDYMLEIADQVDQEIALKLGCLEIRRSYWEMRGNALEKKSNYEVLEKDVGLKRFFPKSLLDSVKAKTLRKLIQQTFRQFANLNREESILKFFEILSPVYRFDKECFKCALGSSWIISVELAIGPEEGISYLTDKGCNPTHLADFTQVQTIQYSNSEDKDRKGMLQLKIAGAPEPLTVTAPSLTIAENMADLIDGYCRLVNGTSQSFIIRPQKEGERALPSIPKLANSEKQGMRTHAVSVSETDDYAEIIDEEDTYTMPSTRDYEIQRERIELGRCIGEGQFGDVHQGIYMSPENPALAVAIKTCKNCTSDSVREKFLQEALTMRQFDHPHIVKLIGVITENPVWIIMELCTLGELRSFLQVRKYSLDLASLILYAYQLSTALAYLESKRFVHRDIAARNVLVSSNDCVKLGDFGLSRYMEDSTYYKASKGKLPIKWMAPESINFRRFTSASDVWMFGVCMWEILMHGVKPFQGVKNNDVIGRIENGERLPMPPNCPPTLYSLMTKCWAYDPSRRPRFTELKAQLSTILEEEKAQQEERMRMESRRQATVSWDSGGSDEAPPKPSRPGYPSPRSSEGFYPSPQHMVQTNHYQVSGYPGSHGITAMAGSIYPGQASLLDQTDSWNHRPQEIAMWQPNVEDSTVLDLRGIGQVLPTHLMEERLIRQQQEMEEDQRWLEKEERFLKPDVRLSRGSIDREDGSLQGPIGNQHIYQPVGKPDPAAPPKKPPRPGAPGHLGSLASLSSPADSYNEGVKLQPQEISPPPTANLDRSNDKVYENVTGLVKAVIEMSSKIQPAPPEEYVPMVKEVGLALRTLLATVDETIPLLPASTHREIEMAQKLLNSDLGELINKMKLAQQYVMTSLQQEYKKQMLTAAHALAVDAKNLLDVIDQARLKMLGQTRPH

Compound	test	system	conditions	how to read	quantity	value
CS(C)(=O)=Nc1ccc(-c2ccc(-c3nc4cc(O[C@@H]5CO[C@H]6[C@@H]5OC[C@H]6O)[nH]c4cc3F)cc2)cc1	enzyme activity, inhibitor	–	10 µM	–	inhibition	10%
CN(C)[C@H]1C[C@@]23CC[C@@]4(O2)C(=CC[C@]2(C)[C@@H](c5ccc6ccncc6c5)CC[C@H]24)C=C3[C@@H](O)[C@@H]1O	ATP probe labelling, inhibitor, KiNativ profiling	–	1 µM	–	inhibition	4.6%
CCOC(=O)[C@@H]1Cc2c(cc([N+](=O)[O-])cc2[N+](=O)[O-])[C@H](O)[C@]12C(=O)Nc1ccc(Br)cc12	binding, competition with immobilised ligand	–	0.1 µM	–	remaining binding	63%
O=C1NC(=O)c2c1c1cc(F)c[n+]3c1c1c2c2cc(O)ccc2[n]1[Ru-4]312([N]=C=S)[S+]3CC[S+]1CC[S+]2CC3 (centres unmarked)	enzyme activity	–	100 nM, human enzyme, added: 10 µM ATP	reference: untreated	remaining activity	100%
Nc1ccc(/C=C/C(=O)N2CCc3c(oc4c(-c5ccc(F)cc5)cc(-c5ccc(C(=O)N6CCC(F)(F)CC6)cn5)cc34)C2)cn1	binding, competition with immobilised ligand	–	1 µM	–	remaining binding	100%
CC(C)[C@H]1NC(=O)C[C@H]2/C=C/CCSSC[C@@H](NC1=O)C(=O)N[C@H](Cc1cccc3ccccc13)C(=O)NCC(=O)O2	enzyme activity, inhibitor	–	10 µM	–	inhibition	8%
C=CC(=O)Nc1cc(-c2nn(C3CCC(N4CCN(C(C)=O)CC4)CC3)c3ncnc(N)c23)ccc1Oc1ccccc1 (centres unmarked)	inhibitor, KiNativ profiling	biochemical	2 µM	–	inhibition	12.1%
C[C@H](NCc1ccc(-c2ccc(C(F)(F)F)cc2)cc1)C(N)=O	cell-free assay, competition with immobilised ligand	–	1 µM	–	inhibition	4%

Excerpt of the above:
Compound	test	system	conditions	how to read	quantity	value
CS(C)(=O)=Nc1ccc(-c2ccc(-c3nc4cc(O[C@@H]5CO[C@H]6[C@@H]5OC[C@H]6O)[nH]c4cc3F)cc2)cc1	enzyme activity, inhibitor	–	10 µM	–	inhibition	10%
